Measurements pooled from the literature.
Numbered parts are unrelated; each lists some results of a single study.

Series 1 — action: agonist; setting: no glutamate
Target: Metabotropic glutamate receptor 2 (GRM2, Homo sapiens, UniProt Q14416)
Sequence of UniProt Q14416 (whole entry, looked up): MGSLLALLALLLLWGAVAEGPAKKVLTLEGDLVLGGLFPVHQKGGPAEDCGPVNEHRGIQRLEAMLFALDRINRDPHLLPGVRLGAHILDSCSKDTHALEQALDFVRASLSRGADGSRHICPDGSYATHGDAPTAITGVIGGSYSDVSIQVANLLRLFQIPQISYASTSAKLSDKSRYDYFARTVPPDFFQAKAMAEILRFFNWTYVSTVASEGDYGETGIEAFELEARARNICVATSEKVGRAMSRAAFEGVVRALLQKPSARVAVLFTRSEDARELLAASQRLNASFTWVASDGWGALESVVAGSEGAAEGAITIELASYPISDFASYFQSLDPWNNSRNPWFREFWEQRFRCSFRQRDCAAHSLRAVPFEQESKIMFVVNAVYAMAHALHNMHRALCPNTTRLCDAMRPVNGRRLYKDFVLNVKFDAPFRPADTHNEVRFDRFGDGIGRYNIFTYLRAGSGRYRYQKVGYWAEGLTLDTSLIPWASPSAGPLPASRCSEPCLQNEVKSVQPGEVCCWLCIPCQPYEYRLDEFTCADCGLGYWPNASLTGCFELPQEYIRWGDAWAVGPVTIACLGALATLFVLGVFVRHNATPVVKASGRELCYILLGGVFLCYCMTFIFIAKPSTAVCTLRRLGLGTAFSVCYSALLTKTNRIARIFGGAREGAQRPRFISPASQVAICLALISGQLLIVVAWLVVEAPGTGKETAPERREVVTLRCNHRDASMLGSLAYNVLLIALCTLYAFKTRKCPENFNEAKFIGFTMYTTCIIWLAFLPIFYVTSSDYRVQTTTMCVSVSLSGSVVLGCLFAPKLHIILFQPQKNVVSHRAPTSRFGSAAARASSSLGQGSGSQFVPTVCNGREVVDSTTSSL
CCCCn1ccn2c(-c3ccc(Oc4ccnc(C)c4)c(F)c3)c(C)nc2c1=O gave an EC50 of 575 nM.
Cc1cc(Oc2ccc(-c3ccn4c(CC5CC5)nnc4c3C(F)(F)F)cc2F)ccn1 has an EC50 of 1860 nM.
For CCOCc1nnc2c(C(F)(F)F)c(-c3ccc4[nH]ccc4c3)ccn12, the EC50 was 1740 nM.

Single results of other studies
TP53 M133L/N239Y/N268D/V203A/Y220C DNA-binding domain: Cellular tumor antigen p53, DNA-binding domain (TP53, Homo sapiens, UniProt P04637, M133L/N239Y/N268D/V203A/Y220C)
Under delta Tm, Cc1cc(C#N)cnc1Cl is recorded as “no effect” (TP53 M133L/N239Y/N268D/V203A/Y220C DNA-binding domain; DSF; 1 mM, 24 h, 20 °C).
O=C(O)COc1ccc(Br)cc1/C=N/NC(=O)c1ccc(Cl)cc1 has a seizure protection of 90% (mouse, PTZ-induced seizures; oral, 20 mg/kg, 0.5 h, together with: PTZ 85 mg/kg i.p.).
With N#Cc1cnc(Br)cn1 the delta Tm was 1.65 °C (TP53 M133L/N239Y/N268D/V203A/Y220C DNA-binding domain; DSF; 1 mM, 30 min, 20 °C).
The cytotoxicity of CC[C@H](C)[C@@H]1NC(=O)[C@H](CC(C)C)NC(=O)[C@H](Cc2ccccc2)NC(=O)[C@H](Cc2ccccc2)NC(=O)[C@@H]2CCCN2C(=O)[C@@H]2CCCN2C(=O)[C@H](C(C)C)NC(=O)[C@H](CC(C)C)NC(=O)[C@H]([C@@H](C)CC)NC1=O is reported as 18% (MCF7; LDH release; 200 µg/mL, 24 h).
Cc1nc(C#N)cnc1Cl has a delta Tm of 1.71 °C (TP53 M133L/N239Y/N268D/V203A/Y220C DNA-binding domain; DSF; 1 mM, 30 min, 20 °C).
Under “MDA level reduction”, O=C(O)COc1ccc(Br)cc1C=NNC(=O)Cc1ccccc1 (mixture of isomers) is recorded as 67.2% (colorimetric, item: malondialdehyde; mouse, pilocarpine epilepsy model, hippocampus; oral, 20 mg/kg; reference: pilocarpine group).
Under delta Tm, Cc1cc(C#N)cnc1F is recorded as “no effect” (Cellular tumor antigen p53, DNA-binding domain (TP53, Homo sapiens, UniProt P04637, M133L/N239Y/N268D/V203A); DSF; 1 mM, up to 24 h).

For quick reference, copied from above (single results of other studies):
Under delta Tm, Cc1cc(C#N)cnc1Cl is recorded as “no effect” (TP53 M133L/N239Y/N268D/V203A/Y220C DNA-binding domain; DSF; 1 mM, 24 h, 20 °C).
